Measured values of several laboratories.
Several values in a cell are separate wells, animals, samples, runs or records. ± gives the spread as reported.
Technique: steady-state kinetics
B1: protein (Rhodopseudomonas palustris, UniProt Q6N3R9); chain MSNVRVLATDLAFPEGPVVMPDGSVVLVEIRAQQLTRVWPDGRKEVVAKVPGGPNGAALGPDGKMYICNNGGFGWFPSRGTMMPGAPAPHEYIGGSIQRVDLQSGEVETLFDKCGEHPLKGPNDLVFDKHGGLWFTDLGKRRARDMDVGAAYYIKPGMTEITEQVFGTLPLNGIGLSPDEATMYAAETPTGRLWAFDLSGPGEVKPRDVIYRGEKGKPICGLGGYQMFDSLAVEASGNVCVATLVSGCISVIAPDGTLVEQVPTGDRVTTNIAFGGPDLKTAYITLSGKGELIAMDWSRPGLPLNFLNK
B2: YjiA C66A/C67A/E37A (Escherichia coli, UniProt P24203); chain MNPIAVTLLTGFLGAGKTTLLRHILNEQHGYKIAVIANEFGEVSVDDQLIGDRATQIKTLTNGCIAASRSNELEDALLDLLDNLDKGNIQFDRLVIECTGMADPGPIIQTFFSHEVLCQRYLLDGVIALVDAVHADEQMNQFTIAQSQVGYADRILLTKTDVAGEAEKLHERLARINARAPVYTVTHGDIDLGLLFNTNGFMLEENVVSTKPRFHFIADKQNDISSIVVELDYPVDISEVSRVMENLLLESADKLLRYKGMLWIDGEPNRLLFQGVQRLYSADWDRPWGDEKPHSTMVFIGIQLPEEEIRAAFAGLRK
B3: enzyme E217L/L163H/N249W (Thermobifida fusca, UniProt Q47RK4); chain MTDVYILDAVRTPFGRYGGALSGIRPDDLAAHVLRALAERSPGLDPAAVDDVFFGDANGAGEDNRNVARMAALLAGWPTSVPGVTLNRLCGSGMESVIAANRAIAVGDASLAVAGGVESMSRAPWVLPKPAQGFPTGHETLYSTTLGWRMVNPAMPEQWTVSHGESTEQVAATYGISRAEQDAFALRSHERAARAWAEGVFDAEITQIPGAELERDLSIRETSAEKLAALKPAFRPDGTITAGNASPLWDGAAALLIGDAAAAERVGREPLARIVSRGVAAVDPDVFGIGPVQAAEIALRRAGIGWDDLSVVELNEAFAAQSLACLKLWPDLDPEIVNPNGGAIAIGHPLGASGARIVGTLAHELHRRGGGWGLAAICIGVGQGLAVVLHR
B4: enzyme N249W (Thermobifida fusca, UniProt Q47RK4); chain MTDVYILDAVRTPFGRYGGALSGIRPDDLAAHVLRALAERSPGLDPAAVDDVFFGDANGAGEDNRNVARMAALLAGWPTSVPGVTLNRLCGSGMESVIAANRAIAVGDASLAVAGGVESMSRAPWVLPKPAQGFPTGHETLYSTTLGWRMVNPAMPEQWTVSLGESTEQVAATYGISRAEQDAFALRSHERAARAWAEGVFDAEITQIPGAELERDESIRETSAEKLAALKPAFRPDGTITAGNASPLWDGAAALLIGDAAAAERVGREPLARIVSRGVAAVDPDVFGIGPVQAAEIALRRAGIGWDDLSVVELNEAFAAQSLACLKLWPDLDPEIVNPNGGAIAIGHPLGASGARIVGTLAHELHRRGGGWGLAAICIGVGQGLAVVLHR
B5: STH1425 H227V (Symbiobacterium thermophilum, UniProt Q67PI3); chain MDKLRVAVVGYGNVGRYALEAVQAAPDMELVGVVRRKVLAATPPELTGVRVVTDISQLEGVQGALLCVPTRSVPEYAEAMLRRGIHTVDSYDIHGDLADLRRRLDPVAREHGAAAVISAGWDPGTDSIIRALLEFMAPKGITYTNFGPGMSMGHSVAVKAIPGVRDALSMTIPAGMGVHKRAVYVELEPGADFAEVERAIKTDPYFVRDETRVTQVESVSALMDVGVGVVMERKGVSGATHNQLFRFEMRINNPALTAQVMVAALRAAARQKPGCYTMIEIPVIDYLPGDREAWIRKLV
B6: enzyme N1029G (Limosilactobacillus reuteri, UniProt Q5SBN3); chain INGQQYYIDPTTGQPRKNFLLQNGNDWIYFDKDTGAGTNALKLQFDKGTISADEQYRRGNEAYSYDDKSIENVNGYLTADTWYRPKQILKDGTTWTDSKETDMRPILMVWWPNTVTQAYYLNYMKQYGNLLPASLPSFSTDADSAELNHYSELVQQNIEKRISETGSTDWLRTLMHEFVTKNSMWNKDSENVDYGGLQLQGGFLKYVNSDLTKYANSDWRLMNRTATNIDGKNYGGAEFLLANDIDNSNPVVQAEELNWLYYLMNFGTITGNNPEANFDGIRVDAVDGVDVDLLSIARDYFNAAYNMEQSDASANKHINILEDWGWDDPAYVNKIGNPQLTMDDRLRNAIMDTLSGAPDKNQALNKLITQSLVNRANDNTENAVIPSYNFVRAHDSNAQDQIRQAIQAATGKPYGEFNLDDEKKGMEAYINDQNSTNKKWNLYNMPSAYTILLTNKDSVPRVYYGDLYQDGGQYMEHKTRYFDTITNLLKTRVKYVAGGQTMSVDKNGILTNVRFGKGAMNATDTGTDETRTEGIGVVISNNTNLKLNDGESVVLHMGAAHKNQKYRAVILTTEDGVKNYTNDTDAPVAYTDANGDLHFTNTNLDGQQYTAVRGYANPDVTGYLAVWVPAGAADDQDARTAPSDEAHTTKTAYRSNAALDSNVIYEGFSNFIYWPTTESERTNVRIAQNADLFKSWGITTFELAPQYNSSKDGTFLDSIIDNGYAFTDRYDLGMSTPNKYGSDEDLRNALQALHKAGLQAIADWVPDQIYNLPGKEAVTVTRSDDHGTTWEVSPIKNVVYITNTIGGGEYQKKYGGEFLDTLQKEYPQLFSQVYPVTQTTIDPSVKIKEWSAKYFNGTNILHRGAGYVLRSNDGKYYNLGTSTQQFLPSQLSVQDNEGYGFVKEGNNYHYYDENKQMVKDAFIQDSVGNWYYFDKNGNMVANQSPVEISSNGASGTYLFLNNGTSFRSGLVKTDAGTYYYDGDGRMVRNQTVSDGAMTYVLDENGKLVSESFDSSATEAHPLKPGDLNGQK
B7: protein N123D (Rhodopseudomonas palustris, UniProt Q6N3R9); chain MSNVRVLATDLAFPEGPVVMPDGSVVLVEIRAQQLTRVWPDGRKEVVAKVPGGPNGAALGPDGKMYICNNGGFGWFPSRGTMMPGAPAPHEYIGGSIQRVDLQSGEVETLFDKCGEHPLKGPDDLVFDKHGGLWFTDLGKRRARDMDVGAAYYIKPGMTEITEQVFGTLPLNGIGLSPDEATMYAAETPTGRLWAFDLSGPGEVKPRDVIYRGEKGKPICGLGGYQMFDSLAVEASGNVCVATLVSGCISVIAPDGTLVEQVPTGDRVTTNIAFGGPDLKTAYITLSGKGELIAMDWSRPGLPLNFLNK
B8: Lxyl-p1-1 V91S (Lentinula edodes, UniProt G8GLN9); chain YFSGLGLGSERSIFRRDLNSTGDESNSTQWPAPLANGGKSWASAFKKAKSTVAEMTVEELANITSGVIGLCSGVTGAVTRLGIPELCLQDGPIGPRGVHGSSQFPAGLTVAATWDRTLMYARARGMGQEFHDQGVHIALAPVTGGPLGRTPLNGRGWEGTFADPYACGEASYQSVKGLTDAGVATVSKHWIAYEQETSRNLYIEFDGVSQADIQLPISSNVDDLTMHELYMWSFAEAVRAGTNHIMCSYNRINNTHSCNNAKGLNQLLKTELNFQGGVVSDWGGQWDSVLSAENGLDVGMPGEGFLGELGDFWGTTLADLINNGTVSEDLVRDKVVRLLTGYYYLGQDINPPPPFVYNTIGAPTLNATSGYRNVRKPGTAELIKEIGSASVTLLKNTGSLPLKHPQRIAVLGNDATYNVLGPNACGLANSACDIDNLNGTLTTGGGSGSALSPYTITPLEALQKRAIEDNAEIAAVVANSNTTTGAEDAIAALLPDADVTFVFLNRYSEEGADAPDFSLGGDGDNLMDLAVTYSSNVVVVIHTTGVVDIEKWADNPNVTAILVAYLPGQEAGNSLVPVLYGDVAPSGKLPWTWGKSIDDYVPNGVVYTDAYSPQSNFTEGVFIDYRWFDKMGITPRYEFGFGLSYTTFTYSNLIVDHGRWAKDYSSVMETAEPFAEWDGTNSLYDVIFTVFATITNTGNLTGSEVAQLYISIPGDNQPVRQLRGFDKIKDLPVGDSAVVTFPIRRKDVSSWSVVDQLWYVPNGDFLISVGGSSRDLPLNTTWTP
B9: CPB2 (Homo sapiens, UniProt Q96IY4); chain ASASYYEQYHSLNEIYSWIEFITERHPDMLTKIHIGSSFEKYPLYVLKVSGKEQAAKNAIWIDCGIHAREWISPAFCLWFIGHITQFYGIIGQYTNLLRLVDFYVMPVVNVDGYDYSWKKNRMWRKNRSFYANNHCIGTDLNRNFASKHWCEEGASSSSCSETYCGLYPESEPEVKAVASFLRRNINQIKAYISMHSYSQHIVFPYSYTRSKSKDHEELSLVASEAVRAIEKISKNTRYTHGHGSETLYLAPGGGDDWIYDLGIKYSFTIELRDTGTYGFLLPERYIKPTCREAFAAVSKIAWHVIRNV

B1 (protein) — kcat/Km (CC(=O)Oc1ccccc1; pH 8.3, NaCl 150 mM, no saturation, added: CaCl2 1 mM): 3190 M⁻¹ s⁻¹
OXA-48 (Klebsiella pneumoniae, UniProt Q6XEC0) — kcat/Km (C[C@@H](O)[C@H]1C(=O)N2C(C(=O)O)=C(S[C@@H]3CN[C@H](C(=O)N(C)C)C3)[C@H](C)[C@H]12; pH 7.2, 30 °C): 17000 M⁻¹ s⁻¹
B2 (YjiA C66A/C67A/E37A) — kcat/Km (Nc1nc2c(ncn2[C@@H]2O[C@H](COP(=O)(O)OP(=O)(O)OP(=O)(O)O)[C@@H](O)[C@H]2O)c(=O)[nH]1; pH 7.6, 37 °C, apo, anaerobic, added: MgCl2 5 mM): 6 ± 3 M⁻¹ s⁻¹
B3 (enzyme E217L/L163H/N249W) — kcat/Km (CC(=O)SCCNC(=O)CCNC(=O)[C@H](O)C(C)(C)COP(=O)(O)OP(=O)(O)OC[C@H]1O[C@@H](n2cnc3c(N)ncnc32)[C@H](O)[C@@H]1OP(=O)(O)O; pH 7.4, 37 °C): 2 M⁻¹ s⁻¹
blaNDM-1 (Klebsiella pneumoniae, UniProt C7C422) — kcat/Km (CC(C)(O/N=C(\C(=O)N[C@@H]1C(=O)N2C(C(=O)[O-])=C(C[N+]3(CCNC(=O)c4ccc(O)c(O)c4Cl)CCCC3)CS[C@H]12)c1csc(N)n1)C(=O)O; pH 7.5, 30 °C): 191000 M⁻¹ s⁻¹ and 100000 M⁻¹ s⁻¹
B4 (enzyme N249W) — kcat/Km (CC(=O)SCCNC(=O)CCNC(=O)[C@H](O)C(C)(C)COP(=O)(O)OP(=O)(O)OC[C@H]1O[C@@H](n2cnc3c(N)ncnc32)[C@H](O)[C@@H]1OP(=O)(O)O; pH 7.4, 37 °C): 4.5 M⁻¹ s⁻¹
L-lactate oxidase (Aerococcus viridans, UniProt Q44467) — kcat/Km (O=C1C(Cl)=CC(=Nc2ccc(O)cc2)C=C1Cl; pH 6.5, 22 °C, varied electron acceptor, apparent, added: L-lactic acid 200 mM): 118000 M⁻¹ s⁻¹
Cj1427c (Campylobacter jejuni, UniProt Q0P8I7) — kcat/Km (O=C(O)CCC(=O)C(=O)O; pH 7.4, 30 °C, apparent): 4300 ± 300 M⁻¹ s⁻¹
B5 (STH1425 H227V) — kcat/Km (O=C(O)C(=O)Cc1ccccc1; pH 9, 30 °C, reductive amination, added: NH4Cl 200 mM, NADPH 0.5 mM): 91 ± 3 M⁻¹ s⁻¹
B6 (enzyme N1029G) — kcat/Km (OC[C@H]1O[C@@](CO)(O[C@H]2O[C@H](CO)[C@@H](O)[C@H](O)[C@H]2O)[C@@H](O)[C@@H]1O; pH 4.7, 37 °C): 12100 M⁻¹ s⁻¹
plcB (Listeria monocytogenes, UniProt P33378) — kcat/Km (CCCCCC(=O)OC[C@H](COP(=O)([O-])OCC[N+](C)(C)C)OC(=O)CCCCC; pH 6, 37 °C): 4600 ± 1900 M⁻¹ s⁻¹
B7 (protein N123D) — kcat/Km (O=C1CCc2ccccc2O1; pH 8, NaCl 150 mM, no saturation, added: CaCl2 1 mM): 150 M⁻¹ s⁻¹
B8 (Lxyl-p1-1 V91S) — kcat/Km ([H][C@]12[C@H](OC(=O)c3ccccc3)[C@]3(O)C[C@H](OC(=O)[C@H](O)[C@@H](NC(=O)c4ccccc4)c4ccccc4)C(C)=C([C@@H](O)C(=O)[C@]1(C)[C@@H](O[C@@H]1OC[C@@H](O)[C@H](O)[C@H]1O)C[C@@]1([H])OC[C@@]21OC(C)=O)C3(C)C): 6260 ± 300 M⁻¹ s⁻¹
dmhA (Campylobacter jejuni, UniProt Q5M6Q7) — kcat/Km (Nc1nc2c(ncn2[C@@H]2O[C@H](COP(=O)(O)OP(=O)(O)O[C@H]3O[C@H]([C@H](O)CO)[C@@H](O)[C@H](O)[C@@H]3O)[C@@H](O)[C@H]2O)c(=O)[nH]1; pH 7.5, 30 °C): 27000 ± 3000 M⁻¹ s⁻¹
B9 (CPB2) — kcat/Km (C[C@H](NC(=O)[C@H](Cc1ccccc1)NC(=O)[C@H](CCC(N)=O)NC(=O)CNC(=O)[C@@H]1CCCN1C(=O)[C@H](Cc1ccccc1)NC(=O)[C@@H](N)Cc1ccc(O)cc1)C(=O)N[C@@H](Cc1ccccc1)C(=O)N[C@@H](CO)C(=O)N[C@@H](CCCCN)C(=O)O; 37 °C): 22000 M⁻¹ s⁻¹

Repeated from above:
L-lactate oxidase (Aerococcus viridans, UniProt Q44467) — kcat/Km (O=C1C(Cl)=CC(=Nc2ccc(O)cc2)C=C1Cl; pH 6.5, 22 °C, varied electron acceptor, apparent, added: L-lactic acid 200 mM): 118000 M⁻¹ s⁻¹
